Results from different studies.
Protocols differ between the studies behind these lines.

SMILES	tested on	assay	system	setting	how to read	quantity	value
COc1ccnc(C(=O)N[C@H]2COC(=O)[C@H](Cc3ccccc3)[C@@H](O)[C@H](C)OC2=O)c1O	Daphnia magna	immobilisation, semi-static water exposure	–	48 h	–	EC50	0.545 µg/mL
FC(F)(F)c1nc(-c2cnc3ccc(-c4ccc(-c5ccccc5)cc4)cc3c2)no1	Enterovirus D68	viral cytopathic effect	RD, STL-2014-12	–	–	EC50	> 200000 nM
COc1ccnc(C(=O)N[C@@H](CO)C(=O)O)c1OCOC(=O)C(C)C	Daphnia magna	immobilisation, semi-static water exposure	–	48 h	–	EC50	> 8.7 µg/mL
Cc1ccc(N(c2ccc(NC(=O)CN(C)c3ccccc3N3CCCC3=O)cc2)C(C)C)cc1	Plasmodium falciparum	parasite growth, SYBR Green	3D7	72 h	–	EC50	7.2 nM
Nc1ncnc2c1ncn2[C@@H]1O[C@H](CSCc2ccc3ccccc3c2)[C@@H](O)[C@H]1O	murine hepatitis virus	viral replication	A59	16 h	–	EC50	> 200000 nM
Cc1cc(OC(C)C)ccc1C(=O)C(C)(C)NC(=O)c1sccc1C	Cercospora	mycelial growth	PSA medium	20 °C, suspension concentrate 400 g/L	–	EC50	0.45 µg/mL
COc1ccnc(C(=O)NCC(=O)O)c1O	Daphnia magna	immobilisation, semi-static water exposure	–	48 h	–	EC50	> 10 µg/mL
Nc1nc2c(ncn2COCCO)c(=O)[nH]1	human alphaherpesvirus 1	viral replication	HEL, KOS	–	–	EC50	900 nM
COc1ccc(NC(=O)N2CCCCN3C[C@H](c4ccc(C#Cc5ccccc5)cc4)[C@@H]3C2)cc1	Cryptosporidium parvum	parasite growth, high-content microscopy	Iowa (Bunch Grass Farm)	1% FBS	–	EC50	36 nM
CCOC(=O)c1cnc2ccc(-c3ccc(C(N)=O)cc3)cc2c1	Enterovirus D68	viral cytopathic effect	RD, STL-2014-12	–	–	EC50	> 200000 nM
O=c1[nH]cnc2c1ncn2[C@@H]1O[C@H](CO)[C@@H](O)[C@H]1O	–	binding, equilibrium dialysis LC-MS	–	5 µM, thermostabilized A2AR-BRIL construct	baseline: no-protein control, direction not given	z-scored log2 fold change	0.152
[N-]=[N+]=N[C@]1(CO)O[C@@H](n2ccc(N)nc2=O)[C@@H](F)[C@@H]1O	murine hepatitis virus	viral genome copies, RT-qPCR	DBT-9, A59 ExoN− mutant	–	–	EC50	3 nM
C[C@H]1C=C(Cc2ccccc2)C(=O)O1	Daphnia magna	immobilisation, semi-static water exposure	–	48 h	–	EC50	> 10 µg/mL
CC(CCC(=O)O)C(=O)O (stereo not drawn)	–	binding, equilibrium dialysis LC-MS	–	5 µM, thermostabilized A2AR-BRIL construct	baseline: no-protein control, direction not given	z-scored log2 fold change	-0.826
COc1ccc(NC(=O)N2CCCCN3[C@H](CN(C)C)[C@H](c4ccc(C#Cc5ccccc5)cc4)[C@@H]3C2)cc1	Cryptosporidium parvum	parasite growth, high-content microscopy	Iowa (Bunch Grass Farm)	1% FBS	–	EC50	9 nM

Excerpt of the above:
SMILES	tested on	assay	system	setting	how to read	quantity	value
C[C@H]1C=C(Cc2ccccc2)C(=O)O1	Daphnia magna	immobilisation, semi-static water exposure	–	48 h	–	EC50	> 10 µg/mL
COc1ccnc(C(=O)N[C@H]2COC(=O)[C@H](Cc3ccccc3)[C@@H](O)[C@H](C)OC2=O)c1O	Daphnia magna	immobilisation, semi-static water exposure	–	48 h	–	EC50	0.545 µg/mL
